Values quoted from earlier work, collected from citations in different studies.
± gives the spread as reported.
Sequence of UniProt P41143 (whole entry, looked up): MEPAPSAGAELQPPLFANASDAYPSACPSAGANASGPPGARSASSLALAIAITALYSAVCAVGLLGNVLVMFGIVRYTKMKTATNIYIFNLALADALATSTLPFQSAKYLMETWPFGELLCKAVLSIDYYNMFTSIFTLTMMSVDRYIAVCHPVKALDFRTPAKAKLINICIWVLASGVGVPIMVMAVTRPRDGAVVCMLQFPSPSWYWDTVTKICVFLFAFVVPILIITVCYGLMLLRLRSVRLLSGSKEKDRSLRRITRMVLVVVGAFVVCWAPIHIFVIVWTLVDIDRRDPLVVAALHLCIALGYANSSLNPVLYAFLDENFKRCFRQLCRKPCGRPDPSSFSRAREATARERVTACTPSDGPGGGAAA
Sequence of UniProt P35372 (whole entry, looked up): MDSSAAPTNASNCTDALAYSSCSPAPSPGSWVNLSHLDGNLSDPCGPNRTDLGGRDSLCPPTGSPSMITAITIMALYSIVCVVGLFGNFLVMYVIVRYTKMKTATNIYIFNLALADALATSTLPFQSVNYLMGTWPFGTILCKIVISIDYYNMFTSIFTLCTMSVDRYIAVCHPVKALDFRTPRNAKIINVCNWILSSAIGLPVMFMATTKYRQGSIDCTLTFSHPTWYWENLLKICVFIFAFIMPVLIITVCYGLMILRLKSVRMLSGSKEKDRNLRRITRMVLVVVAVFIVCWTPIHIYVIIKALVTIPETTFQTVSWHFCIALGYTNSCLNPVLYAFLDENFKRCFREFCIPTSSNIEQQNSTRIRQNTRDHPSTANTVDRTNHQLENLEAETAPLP
Sequence of UniProt P23977 (whole entry, looked up): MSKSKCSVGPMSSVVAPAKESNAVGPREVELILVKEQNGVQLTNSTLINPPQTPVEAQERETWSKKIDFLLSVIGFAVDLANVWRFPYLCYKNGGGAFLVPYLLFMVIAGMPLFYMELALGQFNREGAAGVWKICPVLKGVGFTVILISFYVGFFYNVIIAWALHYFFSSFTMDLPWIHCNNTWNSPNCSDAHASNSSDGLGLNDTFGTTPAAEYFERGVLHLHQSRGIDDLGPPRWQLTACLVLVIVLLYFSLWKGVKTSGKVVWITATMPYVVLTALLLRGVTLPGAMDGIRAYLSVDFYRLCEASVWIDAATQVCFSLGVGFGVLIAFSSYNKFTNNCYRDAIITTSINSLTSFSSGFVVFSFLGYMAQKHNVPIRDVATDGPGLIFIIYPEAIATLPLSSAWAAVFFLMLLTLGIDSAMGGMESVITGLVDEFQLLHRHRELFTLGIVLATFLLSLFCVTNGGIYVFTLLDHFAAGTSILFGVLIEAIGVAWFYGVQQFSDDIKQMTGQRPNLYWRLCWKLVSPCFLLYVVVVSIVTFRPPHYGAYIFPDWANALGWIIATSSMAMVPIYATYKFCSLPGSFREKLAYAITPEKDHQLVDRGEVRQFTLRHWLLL

| Compound | target or system | test | test system | setting | scale | measurement | value |
| --- | --- | --- | --- | --- | --- | --- | --- |
| CN1C/C(=C\c2ccc(Cl)cc2Cl)C/C(=C\c2ccc(Cl)cc2Cl)C1 | Slc6a3 (Rattus norvegicus, UniProt P23977) | inhibitor | – | – | – | Ki | 6.27 µM |
| CNC1(c2ccccc2Cl)CCCCC1=O (racemic) | – | – | human | oral | – | oral bioavailability | 17 to 24% |
| COC1C2OP(O)(=S)OCC2OC1n1c(Sc2ccc(Cl)cc2)nc2c(N)ncnc21 (centres unmarked) | PDE1A | cyclic nucleotide hydrolysis, substrate or inhibitor, isothermal titration calorimetry | – | – | – | Km or Ki | 0.38 µM |
| CCOC(=O)C1(c2ccccc2)CCN(C)CC1 | – | – | – | – | – | pKa | 8.58 |
| COc1cccc(C2(O)CCCCC2CN(C)C)c1 (centres unmarked) | – | – | human drug abusers | oral, 400 mg, peak, 100-point scale, unit not given | baseline: placebo | drug liking-disliking | 24 |
| O=C(O)CCCO | – | measured: psychomotor skills, drug strength | human | 8 g/70 kg, high doses | – | onset of effects | ≥ 30 min |
| CC(=O)NC[C@H]1CN(c2ccc(-c3ccc(CNCc4cnn[nH]4)cc3)c(F)c2)C(=O)O1 | – | – | caseum | 5 µM, 4 h, 37 °C | – | unbound fraction | 5.2 ± 0.8% |
| O=[As][O-].[Na+] | – | – | – | – | – | pKa | 9.23 |
| COc1ccc2c3c1O[C@H]1C(=O)CC[C@H]4[C@@H](C2)N(C)CC[C@]314 | – | – | non-drug abusers | oral, 30 mg, peak drug minus placebo, unit not given, with: acetaminophen combination | baseline: placebo | drug liking versus placebo | 8 |
| COc1ccc2c3c1O[C@H]1C(=O)CC[C@@]4(O)[C@@H](C2)N(C)CC[C@]314 | – | – | patients with hepatic or renal impairment, plasma | dose not given | – | Cmax | increased |
| CC[C@@H](C(N)=O)N1CCCC1=O | – | – | human, plasma | total concentration, therapeutic range | – | therapeutic plasma concentration | 10 to 37 µg/mL |
| COC(=O)Nc1nc2cc(C(=O)c3ccc(F)cc3)ccc2[nH]1 | – | – | Wistar rat, liver, lung, kidney, muscle, fat | oral, 10 mg/kg | – | tissue radioactivity | ≤ 3.1 µg/g |
| C=CCN(CC=C)CCc1c[nH]c2ccccc12 | OPRM1 (Homo sapiens, UniProt P35372) | binding | – | with: [3H]DAMGO | – | Ki | > 10 µM |
| C[C@]12CCC(=O)CC1=CC[C@@H]1[C@@H]2CC[C@]2(C)C(=O)CC[C@@H]12 | ketosteroid isomerase Y14F | substrate | – | pH 7.0, 3.3 % methanol | – | kcat | 13.3 ± 0.6 s⁻¹ |
| Cc1ncc2n1-c1ccc(Cl)cc1C(c1ccccc1F)=NC2 | – | – | human | oral, 2.5 mg, single agent, geometric mean | – | AUC(0-inf) | 0.0671 µM·h |
| C[C@H]1COc2c(N3CCN(C)CC3)c(F)cc3c(=O)c(C(=O)O)cn1c23 | – | – | caseum | 5 µM, 4 h, 37 °C | – | unbound fraction | 8.34 ± 0.4% |
| O=C(O)c1nn(Cc2ccc(Cl)cc2Cl)c2ccccc12 | – | – | plasma | concentration not given | – | Cmax | 23.6 µM |
| COc1ccc2c3c1O[C@H]1C(=O)CC[C@@]4(O)[C@@H](C2)N(C)CC[C@]314 | – | – | human drug abusers | oral, 30 mg, peak, 100-point scale, unit not given | baseline: placebo | drug liking-disliking | 19 |
| C=CCN(CC=C)CCc1c[nH]c2ccc(OC)cc12 | OPRD1 (Homo sapiens, UniProt P41143) | – | – | – | – | Ki | > 10 µM |
| CC(=O)NNC(=O)c1ccncc1 | – | – | THP-1 foamy macrophage matrix | 5 µM, 4 h, 37 °C | – | fraction unbound | > 99.9% |
| COc1ccc(CN(C(=O)[C@@H](N)Cc2c(C)cc(C(N)=O)cc2C)[C@@H](C)c2nc(-c3ccccc3)c[nH]2)cc1C(=O)O | – | – | rhesus monkey | intravenous, 3.2 mg/kg | – | clearance | 154 mL/min |
| CC(C)/N=c1\cc2n(-c3ccc(Cl)cc3)c3ccccc3nc-2cc1Nc1ccc(Cl)cc1 | – | – | caseum | 5 µM, 4 h, 37 °C | – | unbound fraction | < 0.01% |
| CNC(C)Cc1ccc2c(c1)OCO2 (centres unmarked) | – | – | healthy human | oral, dose not given | – | Tmax | 2.2 to 2.6 h |
| NNC(=O)c1ccncc1 | – | – | caseum | 5 µM, 4 h, 37 °C | – | unbound fraction | > 99.9% |
| Nc1ncnc2c1nc(Br)n2C1OC2COP(O)(=S)OC2C1O (centres unmarked) | PDE1B | cyclic nucleotide hydrolysis, substrate or inhibitor, isothermal titration calorimetry | – | – | – | Km or Ki | 5.57 µM |
| Nc1ccc(C(=O)O)c(O)c1 | – | – | caseum | 5 µM, 4 h, 37 °C | – | unbound fraction | 54.7 ± 1.4% |
| CNC(C)C(=O)c1ccc2c(c1)OCO2 (centres unmarked) | – | – | rat | 5 mg/kg, 48 h | – | urinary excretion | ~3% |
| CC[C@@H](CO)NCCN[C@@H](CC)CO | – | – | caseum | 5 µM, 4 h, 37 °C | – | unbound fraction | 35.2 ± 4.4% |
| CN[C@]1(c2ccccc2Cl)CCCCC1=O | – | – | human, placebo phase | intravenous, dose not given | – | AUC(0-inf) | 76 ng·h/mL |

Excerpt of the above:
| Compound | target or system | test | test system | setting | scale | measurement | value |
| --- | --- | --- | --- | --- | --- | --- | --- |
| COC1C2OP(O)(=S)OCC2OC1n1c(Sc2ccc(Cl)cc2)nc2c(N)ncnc21 (centres unmarked) | PDE1A | cyclic nucleotide hydrolysis, substrate or inhibitor, isothermal titration calorimetry | – | – | – | Km or Ki | 0.38 µM |
| CCOC(=O)C1(c2ccccc2)CCN(C)CC1 | – | – | – | – | – | pKa | 8.58 |
| COc1cccc(C2(O)CCCCC2CN(C)C)c1 (centres unmarked) | – | – | human drug abusers | oral, 400 mg, peak, 100-point scale, unit not given | baseline: placebo | drug liking-disliking | 24 |
